Measurements gathered from unrelated publications.
Protocols differ between the studies behind these lines. Several values in a cell are separate wells, animals, samples, runs or records. Numbers after ± are the reported error.
4'-phosphopantetheinyl transferase PptT: 4'-phosphopantetheinyl transferase PptT (Mycobacterium tuberculosis, UniProt O33336)
Chain of UniProt O33336 (whole entry, looked up): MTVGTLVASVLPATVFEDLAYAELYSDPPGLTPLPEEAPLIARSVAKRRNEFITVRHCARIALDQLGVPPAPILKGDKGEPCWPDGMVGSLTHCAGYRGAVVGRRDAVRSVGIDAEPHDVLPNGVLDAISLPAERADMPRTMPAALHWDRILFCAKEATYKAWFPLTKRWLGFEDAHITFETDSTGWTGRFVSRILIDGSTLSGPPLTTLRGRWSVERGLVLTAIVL
F2: Prothrombin (F2, Homo sapiens, UniProt P00734)
Chain of UniProt P21554 (whole entry, unmodified, looked up): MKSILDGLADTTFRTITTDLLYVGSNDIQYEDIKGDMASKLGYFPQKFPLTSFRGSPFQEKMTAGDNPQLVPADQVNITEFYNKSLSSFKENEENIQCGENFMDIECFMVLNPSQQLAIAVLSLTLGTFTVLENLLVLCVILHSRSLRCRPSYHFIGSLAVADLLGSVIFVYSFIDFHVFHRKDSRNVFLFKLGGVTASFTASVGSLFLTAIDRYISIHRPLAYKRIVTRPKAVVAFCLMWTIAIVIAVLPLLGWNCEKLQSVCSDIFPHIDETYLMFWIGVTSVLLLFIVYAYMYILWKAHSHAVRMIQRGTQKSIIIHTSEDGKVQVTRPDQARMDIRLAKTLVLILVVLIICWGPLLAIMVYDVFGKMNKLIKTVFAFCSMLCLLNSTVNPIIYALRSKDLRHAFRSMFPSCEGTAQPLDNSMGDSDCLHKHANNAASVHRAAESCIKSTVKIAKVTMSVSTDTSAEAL
Chain of UniProt P55212 (whole entry, looked up): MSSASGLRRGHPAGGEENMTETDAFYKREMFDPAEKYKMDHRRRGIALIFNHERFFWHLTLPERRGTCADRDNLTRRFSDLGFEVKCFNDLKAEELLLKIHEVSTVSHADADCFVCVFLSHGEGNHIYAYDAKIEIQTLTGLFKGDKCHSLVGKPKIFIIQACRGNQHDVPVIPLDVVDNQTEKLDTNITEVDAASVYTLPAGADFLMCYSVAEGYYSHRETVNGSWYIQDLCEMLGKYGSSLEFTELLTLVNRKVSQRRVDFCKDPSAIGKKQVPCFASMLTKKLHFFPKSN
Chain of UniProt P34972 (whole entry, looked up): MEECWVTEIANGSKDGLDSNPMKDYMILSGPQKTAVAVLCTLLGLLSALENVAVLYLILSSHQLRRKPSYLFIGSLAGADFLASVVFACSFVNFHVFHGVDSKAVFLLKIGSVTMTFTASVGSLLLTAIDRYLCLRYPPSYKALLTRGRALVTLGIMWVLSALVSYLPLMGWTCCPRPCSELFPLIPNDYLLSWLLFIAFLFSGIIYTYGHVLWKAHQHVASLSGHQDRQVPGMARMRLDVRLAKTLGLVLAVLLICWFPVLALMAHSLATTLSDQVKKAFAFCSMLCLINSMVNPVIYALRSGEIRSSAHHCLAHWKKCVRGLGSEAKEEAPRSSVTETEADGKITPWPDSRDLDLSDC
Chain of UniProt P35368 (whole entry, looked up): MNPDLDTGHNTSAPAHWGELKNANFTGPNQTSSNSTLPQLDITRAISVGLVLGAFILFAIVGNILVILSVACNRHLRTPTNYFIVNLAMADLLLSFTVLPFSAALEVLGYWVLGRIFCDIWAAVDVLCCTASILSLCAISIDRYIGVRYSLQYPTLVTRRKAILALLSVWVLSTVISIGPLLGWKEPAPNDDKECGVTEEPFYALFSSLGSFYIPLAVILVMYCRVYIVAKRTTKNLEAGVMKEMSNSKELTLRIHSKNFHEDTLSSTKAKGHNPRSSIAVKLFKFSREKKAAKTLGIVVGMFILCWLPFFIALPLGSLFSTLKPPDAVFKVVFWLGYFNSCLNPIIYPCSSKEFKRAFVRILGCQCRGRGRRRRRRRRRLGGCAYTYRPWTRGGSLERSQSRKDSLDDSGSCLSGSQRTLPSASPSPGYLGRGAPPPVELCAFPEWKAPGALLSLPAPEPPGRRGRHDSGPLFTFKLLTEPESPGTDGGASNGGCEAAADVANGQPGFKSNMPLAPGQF
Chain of UniProt P41586 (whole entry, looked up): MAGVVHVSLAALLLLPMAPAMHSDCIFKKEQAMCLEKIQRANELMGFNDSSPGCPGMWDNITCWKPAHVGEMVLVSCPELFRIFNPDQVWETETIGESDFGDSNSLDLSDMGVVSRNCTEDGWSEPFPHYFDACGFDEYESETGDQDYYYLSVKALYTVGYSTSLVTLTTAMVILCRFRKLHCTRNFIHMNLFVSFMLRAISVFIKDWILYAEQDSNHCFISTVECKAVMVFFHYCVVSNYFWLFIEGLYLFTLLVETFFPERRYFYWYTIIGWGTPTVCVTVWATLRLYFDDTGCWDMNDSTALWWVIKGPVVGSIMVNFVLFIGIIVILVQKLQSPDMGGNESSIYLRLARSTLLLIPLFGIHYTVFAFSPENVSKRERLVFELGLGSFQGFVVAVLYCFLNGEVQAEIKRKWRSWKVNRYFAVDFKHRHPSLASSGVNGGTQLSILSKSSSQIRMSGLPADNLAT
Chain of UniProt P41143 (whole entry, unmodified, looked up): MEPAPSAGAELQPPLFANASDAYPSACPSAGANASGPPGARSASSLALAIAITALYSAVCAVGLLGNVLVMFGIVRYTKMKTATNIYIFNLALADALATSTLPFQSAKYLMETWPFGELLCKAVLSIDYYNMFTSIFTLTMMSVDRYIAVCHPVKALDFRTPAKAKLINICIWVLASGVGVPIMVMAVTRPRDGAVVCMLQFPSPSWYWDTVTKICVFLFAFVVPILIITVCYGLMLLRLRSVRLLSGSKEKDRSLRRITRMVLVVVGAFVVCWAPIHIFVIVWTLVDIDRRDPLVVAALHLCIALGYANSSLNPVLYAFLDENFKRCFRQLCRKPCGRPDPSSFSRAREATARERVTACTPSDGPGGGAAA

The Ki of `CCN(CC)C(=O)[C@@H]1C=C2c3cccc4c3c(cn4C(=O)c3ccco3)C[C@H]2N(C)C1` is reported as over 10000 nM (ADRA1B (Homo sapiens, UniProt P35368); ligand displacement, radioligand).
`CC(C)CC(C(=O)N1CC2(CC1C#N)C(=O)Nc1ccccc12)N(C)C(=O)c1cc2c(F)cc(F)c(F)c2[nH]1` (centres unmarked) has an IC50 of 2000 nM and 1990 nM (Caspase-6 (CASP6, Homo sapiens, UniProt P55212); enzyme activity, inhibitor).
`CCN(Cc1ccc2nc(C)[nH]c(=O)c2c1)c1cnc(C(=O)NC(CCC(=O)O)C(=O)O)s1` (centres unmarked) gave an IC50 of 88 nM (4'-phosphopantetheinyl transferase PptT; enzyme activity, inhibitor, FP).
With `CCCCCCC(=O)N[C@H]1CCOC1=O` the Ki was over 100000 nM (Carbonic anhydrase (Vibrio cholerae serotype O1, UniProt Q9KMP6); enzyme activity, inhibitor, stopped-flow).
With `CCOC(=O)CC[C@H](NC(=O)c1ccc(N(C)Cc2ccc3[nH]c(=O)ccc3c2)cc1)C(=O)OCC` the IC50 was over 25000 nM (4'-phosphopantetheinyl transferase PptT; enzyme activity, inhibitor, fluorescence polarization; enzyme 100 nM).
With `O=[N+]([O-])CC(c1ccco1)c1c(-c2ccccc2)[nH]c2ccccc12` (centres unmarked) the EC50 was 210 nM (CNR1 (Homo sapiens, UniProt P21554, I245F); G protein activation, agonist, BRET).
The IC50 of `C#CCN(Cc1ccc2nc(C)[nH]c(=O)c2c1)c1ccc(C(=O)N[C@@H](CSCCC(=O)O)C(=O)O)cc1` is reported as 59 nM (4'-phosphopantetheinyl transferase PptT; enzyme activity, inhibitor, FP).
`CCCCCn1cc(C(=O)c2cccc3ccccc23)c2ccccc21` gave an EC50 of 871 nM (CNR1 (Homo sapiens, UniProt P21554, H178A); G protein activation, agonist, BRET).
For `CN(C)CC1CN(S(=O)(F)=Nc2cc(Cl)c(C(=O)N3CCO[C@@H](c4ccccc4)C3)c(Cl)c2)C1` (some centres unmarked), the Kd was 30 nM (hemagglutinin (Influenza A virus, UniProt B4UPF7); binding; A/Beijing/262/1995).
The IC50 of `Cc1nc2ccc(CN(C)c3ccc(C(=O)NC(CCC(=O)O)C(=O)O)cc3)cc2c(=O)[nH]1` (centres unmarked) is reported as 72 nM (4'-phosphopantetheinyl transferase PptT; enzyme activity, inhibitor, FP).
The EC50 of `COc1ccccc1C(C[N+](=O)[O-])c1c(-c2ccccc2)[nH]c2ccccc12` (centres unmarked) is reported as 270 nM (CNR1 (Homo sapiens, UniProt P21554, V171A); G protein activation, agonist, BRET).
The EC50 of `CCCCCn1cc(C(=O)c2cccc3c2CC(C)(C)C3)c2ccccc21` is reported as 1.58 nM (CNR2 (Homo sapiens, UniProt P34972); cAMP, agonist).
The Ki of `CC[C@H](C)[C@H](NC(=O)[C@@H]1CCCN1C(=O)[C@H](CCC(=O)O)NC(=O)[C@H](CCSC)NC(=O)CNC(=O)[C@H](CC(N)=O)NC(=O)CNC(=O)CNC(=O)[C@H](CCC(=O)O)NC(=O)CNC(=O)[C@H](CCCNC(=N)N)NC(=O)[C@H](CCC(N)=O)NC(=O)[C@H](Cc1ccc(O)cc1)NC(=O)[C@H](CC(C)C)NC(=O)[C@H](CCCCN)NC(=O)[C@@H]1CCCN1C(=O)[C@H](CCC(N)=O)NC(=O)[C@H](C)NC(=O)[C@@H](NC(=O)[C@H](CCC(=O)O)NC(=O)[C@H](C)NC(=O)[C@H](CCC(=O)O)NC(=O)[C@@H](NC(=O)[C@@H]1CCCN1C(=O)[C@@H](N)CCCCN)C(C)C)C(C)C)C(=O)N1CCC[C@H]1C(=O)N[C@@H](CCC(=O)O)C(=O)N[C@@H](CC(=O)O)C(=O)N[C@@H](Cc1ccc(OS(=O)(=O)O)cc1)C(=O)N[C@@H](CC(C)C)C(=O)N[C@@H](CC(=O)O)C(=O)N[C@@H](CC(=O)O)C(=O)N[C@@H](CCC(=O)O)C(=O)N[C@@H](CO)C(=O)O` is reported as 0.00632 nM (F2; enzyme activity, inhibitor, absorbance; pH 8).
`CC[C@H](C)[C@H](NC(=O)[C@H](CO)NC(=O)[C@H](CC(N)=O)NC(=O)[C@H](CC(C)C)NC(=O)[C@H](Cc1ccc(O)cc1)NC(=O)[C@H](CCCCN)NC(=O)[C@H](CCCCN)NC(=O)[C@@H](NC(=O)[C@H](C)NC(=O)[C@H](CCSC)NC(=O)[C@H](CCC(N)=O)NC(=O)[C@H](CCCCN)NC(=O)[C@H](CCCN=C(N)N)NC(=O)[C@H](CC(C)C)NC(=O)[C@H](CCCN=C(N)N)NC(=O)[C@@H](NC(=O)[C@H](Cc1ccc(O)cc1)NC(=O)[C@H](CC(N)=O)NC(=O)[C@H](CC(=O)O)NC(=O)[C@@H](NC(=O)[C@H](Cc1ccccc1)NC(=O)[C@@H](NC(=O)[C@H](C)NC(=O)[C@H](CC(=O)O)NC(=O)[C@H](CO)NC(=O)[C@@H](N)Cc1c[nH]cn1)C(C)C)[C@@H](C)O)[C@@H](C)O)C(C)C)C(=O)N[C@@H](CC(C)C)C(=O)N[C@@H](CC(N)=O)C(N)=O` gave an EC50 of 977 nM (ADCYAP1R1 (Homo sapiens, UniProt P41586); G protein activation, agonist, BRET).
With `CC(C)C[C@H](NC(=O)[C@H](C)NC(=O)[C@@H](N)CCC(N)=O)C(=O)N[C@@H](Cc1ccccc1)C(=O)N[C@@H](CC(=O)O)C(=O)N[C@H](C(=O)N[C@H]1CCSSC[C@@H](C(=O)N[C@@H](CCCCN)C(=O)NCC(=O)N[C@@H](CO)C(=O)N[C@@H](CCCCNC(=O)CCCC[C@@H]2SC[C@@H]3NC(=O)N[C@@H]32)C(N)=O)NC(=O)[C@H](CC(N)=O)NC(=O)[C@@H]2CCCN2C(=O)[C@H](Cc2c[nH]cn2)NC(=O)[C@H](CO)NC(=O)[C@H](Cc2ccc(O)cc2)NC(=O)[C@H](CC(=O)O)NC1=O)C(C)C` the Kd was under 1 nM (anti-HA antibody 12CA5 (mouse); biolayer interferometry; 30 °C).
The Ki of `CC[C@H](C)[C@H](NC(=O)[C@@H]1CCCN1C(=O)[C@H](CCC(=O)O)NC(=O)[C@H](CCSC)NC(=O)CNC(=O)[C@H](CC(N)=O)NC(=O)CNC(=O)CNC(=O)[C@H](CCC(=O)O)NC(=O)CNC(=O)[C@H](CCCNC(=N)N)NC(=O)[C@H](CCC(N)=O)NC(=O)[C@H](Cc1ccc(O)cc1)NC(=O)[C@H](CC(C)C)NC(=O)[C@H](CCCCN)NC(=O)[C@@H]1CCCN1C(=O)[C@H](CCC(N)=O)NC(=O)[C@H](C)NC(=O)[C@@H](NC(=O)[C@H](CCC(=O)O)NC(=O)[C@H](C)NC(=O)[C@H](CCC(=O)O)NC(=O)[C@@H](NC(=O)[C@@H]1CCCN1C(=O)[C@@H](N)CCCCN)C(C)C)C(C)C)C(=O)N1CCC[C@H]1C(=O)N[C@@H](CCC(=O)O)C(=O)N[C@@H](CC(=O)O)C(=O)N[C@@H](Cc1ccc(O)cc1)C(=O)N[C@@H](CC(C)C)C(=O)N[C@@H](CCC(N)=O)C(=O)O` is reported as 0.067 nM (F2; enzyme activity, inhibitor, absorbance; pH 8).
The IC50 of `CN(Cc1cnc2[nH]ccc2c1)c1ccc(C(=O)NC(CCC(=O)O)C(=O)O)cc1` (centres unmarked) is reported as over 25000 nM (4'-phosphopantetheinyl transferase PptT; enzyme activity, inhibitor, fluorescence polarization; enzyme 100 nM).
`CCN(CC)C(=O)c1ccc(C(c2cccc(O)c2)N2CC(C)N(Cc3ccccc3)CC2C)cc1` (centres unmarked) has a Ki of 1.04 ± 0.27 nM (OPRD1 (Homo sapiens, UniProt P41143, Y129F)).
With `Cc1ccc2c(C(C[N+](=O)[O-])c3cccs3)c(-c3ccccc3)[nH]c2c1` (centres unmarked) the EC50 was 50 ± 10 nM (Cannabinoid receptor 1, with Gz (CNR1, Homo sapiens, UniProt P21554); Gz dissociation, agonist, BRET; HEK293).
For `C#CCN(Cc1ccc2nc(C)[nH]c(=O)c2c1)C(=O)NC(CSCC(N)=O)c1cccc([N+](=O)[O-])c1` (centres unmarked), the IC50 was 1100 nM (4'-phosphopantetheinyl transferase PptT; enzyme activity, inhibitor, fluorescence polarization; enzyme 100 nM).

Repeated from above:
The Ki of `CCN(CC)C(=O)[C@@H]1C=C2c3cccc4c3c(cn4C(=O)c3ccco3)C[C@H]2N(C)C1` is reported as over 10000 nM (ADRA1B (Homo sapiens, UniProt P35368); ligand displacement, radioligand).
`CC(C)CC(C(=O)N1CC2(CC1C#N)C(=O)Nc1ccccc12)N(C)C(=O)c1cc2c(F)cc(F)c(F)c2[nH]1` (centres unmarked) has an IC50 of 2000 nM and 1990 nM (Caspase-6 (CASP6, Homo sapiens, UniProt P55212); enzyme activity, inhibitor).
